Experimental data gathered from unrelated publications.
Parts stem from different laboratories: compare values within a part only. Substitutions count along the parent as printed.

Sample 1 — technique: universal PBM; form: double-stranded DNA, one strand shown; medium: in vitro; concentration: 600 nM; direction: higher = stronger binding
Target: Sal-like protein 4, full length isoform A (SALL4, Homo sapiens, UniProt Q9UJQ4, residues 1-1053)
Chain of UniProt Q9UJQ4 (whole entry, looked up): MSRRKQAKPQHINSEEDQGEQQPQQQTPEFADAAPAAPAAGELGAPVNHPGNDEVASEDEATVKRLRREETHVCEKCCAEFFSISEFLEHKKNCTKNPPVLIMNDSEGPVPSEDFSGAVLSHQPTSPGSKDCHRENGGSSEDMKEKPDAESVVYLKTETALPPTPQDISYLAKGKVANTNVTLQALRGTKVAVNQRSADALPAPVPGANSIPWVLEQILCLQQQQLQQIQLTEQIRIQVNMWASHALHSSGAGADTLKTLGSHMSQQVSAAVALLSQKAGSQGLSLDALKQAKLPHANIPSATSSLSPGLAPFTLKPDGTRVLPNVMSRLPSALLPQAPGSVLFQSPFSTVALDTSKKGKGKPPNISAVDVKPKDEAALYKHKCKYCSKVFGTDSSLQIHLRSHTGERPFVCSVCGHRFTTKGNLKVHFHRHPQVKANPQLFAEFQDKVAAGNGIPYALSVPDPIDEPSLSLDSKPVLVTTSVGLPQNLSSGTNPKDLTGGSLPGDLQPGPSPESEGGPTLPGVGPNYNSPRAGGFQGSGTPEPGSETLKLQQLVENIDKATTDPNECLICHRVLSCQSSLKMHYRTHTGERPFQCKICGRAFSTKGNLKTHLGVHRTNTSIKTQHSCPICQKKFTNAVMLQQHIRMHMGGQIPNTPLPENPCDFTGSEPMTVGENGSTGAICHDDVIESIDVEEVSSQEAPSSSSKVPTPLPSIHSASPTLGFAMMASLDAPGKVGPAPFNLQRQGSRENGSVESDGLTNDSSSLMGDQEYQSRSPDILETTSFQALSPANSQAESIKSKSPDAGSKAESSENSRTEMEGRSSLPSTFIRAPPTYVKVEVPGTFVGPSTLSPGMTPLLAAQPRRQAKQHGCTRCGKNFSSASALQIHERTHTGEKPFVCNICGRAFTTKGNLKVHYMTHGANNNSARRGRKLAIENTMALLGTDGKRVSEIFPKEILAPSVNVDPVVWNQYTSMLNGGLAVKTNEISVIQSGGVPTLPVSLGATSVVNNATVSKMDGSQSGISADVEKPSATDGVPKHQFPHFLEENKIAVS
Notes: 8-mer, flanks averaged, mean of replicates
`AAAGTCGC` has an E-score of 0.0946.
The E-score of `CCAGCCGC` is reported as -0.301.
The E-score of `GATGAAGA` is reported as 0.197.
With `GTCCTTCA` the E-score was 0.0332.
The E-score of `CAACCCAA` is reported as -0.00186.
With `CAGTCACA` the E-score was 0.0351.
`ATCAGGTG` has an E-score of -0.107.
`GCGTCGTA` has an E-score of 0.062.
With `GAGTGCGC` the E-score was -0.302.
The E-score of `CAGATACC` is reported as -0.0597.
`ACCCAACC` gave an E-score of -0.138.
The E-score of `CAGTCATG` is reported as -0.188.
The E-score of `ATTCGACG` is reported as 0.0456.
The E-score of `CACATTGA` is reported as 0.18.
`CGGTAGCA` has an E-score of -0.0556.
For `CAAGTTAG`, the E-score was -0.00485.
With `TCTTGTCA` the E-score was 0.156.
`AGCGCGAC` gave an E-score of -0.208.
`AGCGACCC` gave an E-score of -0.392.

Sample 2 — target: CCNF, cyclin fold, Cln2 fusion (human); technique: yeast growth competition, sequencing; medium: yeast; notes: strong parent motif; reference: not given; direction: higher = stronger binding
Starting sequence: REV3L docking peptide (human); PPVIIKYIIINRF
For `PPAIIKYIIINRF [V3A]`, “normalised enrichment score” read 1.59.
Under “normalised enrichment score”, `PPVIIKYAIINRF [I8A]` is recorded as 1.03.
Under “normalised enrichment score”, `PPVIIAYIIINRF [K6A]` is recorded as 0.138.
Under “normalised enrichment score”, `APVIIKYIIINRF [P1A]` is recorded as 0.905.
For `PPVIIKYIIINAF [R12A]`, “normalised enrichment score” read 1.26.
`PPVIIKYIIANRF [I10A]` — result for “normalised enrichment score”: 1.77.

Sample 3 — technique: RNA Bind-n-Seq; form: RNA; medium: in vitro; concentration: 365 nM; reference: no-protein control; direction: higher = stronger binding
Target: RNA binding protein fox-1 homolog 2, RRM domain, GST-SBP tag (RBFOX2, Homo sapiens, UniProt O43251-10, residues 100-194)
Notes: natural RNA segment, single round, ends assumed
Construct (chain): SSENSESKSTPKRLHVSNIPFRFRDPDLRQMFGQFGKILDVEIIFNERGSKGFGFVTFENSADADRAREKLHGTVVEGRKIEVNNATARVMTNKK
`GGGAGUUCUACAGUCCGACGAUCUCACUGCAACCUCCACCUCCUGGGUUCAAGCAAUUCUUGUGCCUCAGCCUCCCGAGUAGCUGGGAUUACAGGCACCCACCACCACGCUCAGCUAAUUUUUGUAUUUUUAGUGGAAUUCUCGGGUGCCAA`: “RBNS enrichment (R)” 0.575.
`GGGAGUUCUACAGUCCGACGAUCCUACUUCCUGUAAACAAGUACAGGAAAAUGAAACUAGACGGGUGGGGGACACUAGAAUGAAAACCAGUGUUAGGGUAAAGACAAAACAGACUAUGUACAUAAUCUGUAUAUGGAAUUCUCGGGUGCCAA`: “RBNS enrichment (R)” 0.807.
`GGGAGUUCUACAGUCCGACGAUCGCCUGUUUUCUGUUUCAAACAUGAUAGUUGAUAUGAGACUGAAACCCCUGGGUUGUGGAGGGAAAUUGGCUCAGAGAUGGACAACCUGGCAACUGUGAGUCCCUGCUUCCUGGAAUUCUCGGGUGCCAA`: “RBNS enrichment (R)” 0.481.
Under “RBNS enrichment (R)”, `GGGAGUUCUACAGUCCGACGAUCUAAGUUAAACAUAAGACACAGGGGCUGUUGCUUUUGAACAGAACCCUAUAUUACUCUCCUGGGAUCUGAGUUUCUGCAGGUCAUUUGUAUGUAGGACCAGGAGUAUCUCCUGGAAUUCUCGGGUGCCAA` is recorded as 0.277.
Under “RBNS enrichment (R)”, `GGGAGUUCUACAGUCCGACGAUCCCUGGGAAGACAUGAAUGUGCAGACCAUUGCAGAGCUUUUGAUUUCAUCUAGGUUCUGAAUUACAGAAACCAACCAACCAAAAUUCUACCUUCAUUCUACAUAGACAUCAUGGAAUUCUCGGGUGCCAA` is recorded as 0.495.
For `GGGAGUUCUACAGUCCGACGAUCCAUAACCUGAAGUUAAGUCACAUCCCCUGUCGGGACCUCCGUGCACUCAUCUGUCAAGUGGGGGCGCUUCCCUUCCAGCAUCACCUGCAGCAGACGGGCUCUCGGGAGUCUGGAAUUCUCGGGUGCCAA`, “RBNS enrichment (R)” read 0.468.
Under “RBNS enrichment (R)”, `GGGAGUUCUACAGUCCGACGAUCCCCCAUUCUUUGCUUGAACACAGUAUUUUCCCAAUAGCACUUUCAUUGCCAGUGUCUUUCUUUGGUGCCUUUCCUGUUCAGCAUUCUUAGCCUGUGGCAGUAAAGAGAAAUGGAAUUCUCGGGUGCCAA` is recorded as 2.36.
`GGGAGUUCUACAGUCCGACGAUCUUGUGCUGUCUACCUCUCACUGGGUCCUGGUGGGGGUCGGGCUCCCUUCUCCUGGGGUGAUUGAUGGCCUGAGCCUGGGGUCCUGGUAGUAGAGACCCAGCUGGCCUGGGUGGAAUUCUCGGGUGCCAA` — result for “RBNS enrichment (R)”: 0.526.
Under “RBNS enrichment (R)”, `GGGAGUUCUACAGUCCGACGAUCCCAGCAGCACCGUACCUCUGCCCUGUAAAAAUCAGACUCGGAACCGAUGUGUGCUUUAGGGAAUUUUAAGUUGCAUGCAUUUCAGAGACUUUAAGUCAGUUGGUUUUUAUUGGAAUUCUCGGGUGCCAA` is recorded as 11.1.
`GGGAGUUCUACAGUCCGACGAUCUCCCGGCCCGCCUGCCCAGACUGAUGAGCACAUCUCUCUGCCCUCUCCCUGUGUUCUGGGCUGGGGCCACCUUUGUGCAGCUUCGAGGACAGGAAAGGCCCCAAUCUUGCUGGAAUUCUCGGGUGCCAA`: “RBNS enrichment (R)” 0.425.
For `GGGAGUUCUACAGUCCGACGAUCUUCCAGGGAGCUCAGUUUGAUCAUUCUGGGAAUUCUUGUCCUGCCAGCCUGGUGCGGCUGGGAUCACACUUCAAGGAUGGACAGUGGUGUCUCUUUGGGAGAUGGUGUUCUGGAAUUCUCGGGUGCCAA`, “RBNS enrichment (R)” read 0.328.

Sample 4 — technique: RNA Bind-n-Seq; form: RNA; medium: in vitro; concentration: 200 nM; notes: whole 134-nt RNA, ends assumed; added: 150 mM KCl; reference: input library; direction: higher = stronger binding
Target: Fragile X messenger ribonucleoprotein 1, C-terminal low-complexity region (Fmr1, Mus musculus, UniProt P35922)
`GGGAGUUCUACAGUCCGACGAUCCCUGCUUUUGGGGGUGACCGCCGGAGCGCGGCGUGAGCCCUCCCCCUUGGGAUCCCGCAGCUGACCAGUCGCGCUGACGGACAGACAGACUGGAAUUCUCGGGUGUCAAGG` has a log2 enrichment of -2.33.
For `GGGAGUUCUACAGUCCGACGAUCAGUCCUGUGCUACACAUCGUAUGUACCGAAUCGGGUUUUUUUGGGUUUUUGGGUGGGAAAGUAUUAUGUUACGCCGUUCGGAUCUGCACUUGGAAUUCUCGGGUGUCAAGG`, the log2 enrichment was 0.76.
`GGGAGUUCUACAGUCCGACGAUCGCAGGAAGUAAAAACAAAUGGAAAUGCUUCGGAUAGUGGCAGGGGUGGGGGUUUCUAAGGAAAGGGUGGGAUGGGAGUGGGUAAAGAGUUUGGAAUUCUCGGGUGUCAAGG` gave a log2 enrichment of 0.641.
`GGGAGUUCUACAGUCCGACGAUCUUGCCCUGGUGGCAUGCGGGGAGGAAGAGGUGGCCUCAUGGAUCGUGGUGGUCCCGGUGGAAUGUUCAGAGGUGGCCGUGGUGGAGACAGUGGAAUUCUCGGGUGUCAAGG` gave a log2 enrichment of -0.0506.
The log2 enrichment of `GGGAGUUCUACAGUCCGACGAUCAUCAUGCAGGUGGGCAUCUUUGGGAAGUGGGGCAAGGGGGGGAUAGGGAGGGGGGUAACACUUUGGGAACAGGUGGUCCCAGGUCGUUUCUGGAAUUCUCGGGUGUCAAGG` is reported as 0.636.
For `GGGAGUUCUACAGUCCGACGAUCAGUCCUGUGCUACACAUCGUAUGUACCGAAUCGGGGAAAAAAAGGGGUGGGGAGGGGAAAGUAUUAUGUUACGCCGUUCGGAUCUGCACUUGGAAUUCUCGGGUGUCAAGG`, the log2 enrichment was 0.739.
`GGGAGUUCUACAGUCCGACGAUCUCCUGUGCUACACAUCGUAUGUACCGAAUCGGGAAAAAAAGGGAAAAAGGGUUUUUGGGAAAGUAUUAUGUUACGCCGUUCGGAUCUGCAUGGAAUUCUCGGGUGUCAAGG` has a log2 enrichment of -0.21.
With `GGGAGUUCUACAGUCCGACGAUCGUCCUGUGCUACACAUCGUAUGUACCGAAUCAAAUUUUUUUAAAUUUUUAAAUUUAAAAAAGUAUUAUGUUACGCCGUUCGGAUCUGCACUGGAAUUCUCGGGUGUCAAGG` the log2 enrichment was -1.3.
The log2 enrichment of `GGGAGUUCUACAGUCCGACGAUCUCCUCAAGUCCUGUGCUACACAUCGUAUGUACCGAAUCGGUUGGUUGGUUGGAAAGUAUUAUGUUACGCCGUUCGGAUCUGCACUUCCAGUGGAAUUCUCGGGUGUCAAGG` is reported as 0.39.
For `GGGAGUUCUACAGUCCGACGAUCAGUCCUGUGCUACACAUCGUAUGUACCGAAUCGGGUUUGGGAAAAAAAGGGAAAGGGAAAGUAUUAUGUUACGCCGUUCGGAUCUGCACUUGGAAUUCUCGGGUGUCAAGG`, the log2 enrichment was 0.271.
With `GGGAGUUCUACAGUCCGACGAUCCAGUUUAAGAGGGGUUUCAUGCAAGGGCAUGUAAAUAGACAAGAAAAAGAAGAAAAAGAAGCAAUAUAUAAAGAACGUUGGCCAGAUUAUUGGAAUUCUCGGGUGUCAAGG` the log2 enrichment was -0.0265.
`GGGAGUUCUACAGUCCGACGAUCCAAGUCCUGUGCUACACAUCGUAUGUACCGAAUCGGGGUUUGGGGUUUGGUUUGGGAAAGUAUUAUGUUACGCCGUUCGGAUCUGCACUUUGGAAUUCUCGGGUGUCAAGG` has a log2 enrichment of 0.0833.
`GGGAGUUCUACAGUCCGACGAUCGCAGGAAGUAAAAACAAAUGGAAAUGCUUCGGAUAGUGGCAGGGGUGGGGGUUGCUAAGGAAAGGGUGGGAUGGGAAAGGGUAAAGAGUUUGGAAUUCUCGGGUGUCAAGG` has a log2 enrichment of 0.00341.
The log2 enrichment of `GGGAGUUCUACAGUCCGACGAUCCAAGUCCUGUGCUACACAUCGUAUGUACCGAAUCGGGGAAAGGAAAGGGGAAAGGAAAGUAUUAUGUUACGCCGUUCGGAUCUGCACUUCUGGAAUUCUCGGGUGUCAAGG` is reported as -0.177.

Further values, each from its own experiment
With `PhoQ, residues 284 288 289 292 302 303 GTAMQF` the fold induction was 1.65 (PhoP, residues 12 14 15 18 19 TQALL (Escherichia coli, UniProt P23836); Sort-seq, measured: YFP reporter; E. coli; PhoQ-PhoP variant library, added: 10 µM Mg2+; reference: high Mg2+ state, higher = stronger signaling).

For quick reference, copied from above (sample 4):
`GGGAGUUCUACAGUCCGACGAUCCCUGCUUUUGGGGGUGACCGCCGGAGCGCGGCGUGAGCCCUCCCCCUUGGGAUCCCGCAGCUGACCAGUCGCGCUGACGGACAGACAGACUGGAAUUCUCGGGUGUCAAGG` has a log2 enrichment of -2.33.
For `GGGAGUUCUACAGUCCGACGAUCAGUCCUGUGCUACACAUCGUAUGUACCGAAUCGGGUUUUUUUGGGUUUUUGGGUGGGAAAGUAUUAUGUUACGCCGUUCGGAUCUGCACUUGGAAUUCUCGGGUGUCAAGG`, the log2 enrichment was 0.76.
`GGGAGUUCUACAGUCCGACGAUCGCAGGAAGUAAAAACAAAUGGAAAUGCUUCGGAUAGUGGCAGGGGUGGGGGUUUCUAAGGAAAGGGUGGGAUGGGAGUGGGUAAAGAGUUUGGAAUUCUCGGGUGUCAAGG` gave a log2 enrichment of 0.641.
`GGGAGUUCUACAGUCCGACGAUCUUGCCCUGGUGGCAUGCGGGGAGGAAGAGGUGGCCUCAUGGAUCGUGGUGGUCCCGGUGGAAUGUUCAGAGGUGGCCGUGGUGGAGACAGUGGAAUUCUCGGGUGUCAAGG` gave a log2 enrichment of -0.0506.
The log2 enrichment of `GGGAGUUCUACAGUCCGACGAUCAUCAUGCAGGUGGGCAUCUUUGGGAAGUGGGGCAAGGGGGGGAUAGGGAGGGGGGUAACACUUUGGGAACAGGUGGUCCCAGGUCGUUUCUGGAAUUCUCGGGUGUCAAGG` is reported as 0.636.
For `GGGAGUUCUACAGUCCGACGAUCAGUCCUGUGCUACACAUCGUAUGUACCGAAUCGGGGAAAAAAAGGGGUGGGGAGGGGAAAGUAUUAUGUUACGCCGUUCGGAUCUGCACUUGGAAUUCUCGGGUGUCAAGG`, the log2 enrichment was 0.739.
`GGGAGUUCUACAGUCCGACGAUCUCCUGUGCUACACAUCGUAUGUACCGAAUCGGGAAAAAAAGGGAAAAAGGGUUUUUGGGAAAGUAUUAUGUUACGCCGUUCGGAUCUGCAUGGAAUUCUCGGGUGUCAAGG` has a log2 enrichment of -0.21.
With `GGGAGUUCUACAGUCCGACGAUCGUCCUGUGCUACACAUCGUAUGUACCGAAUCAAAUUUUUUUAAAUUUUUAAAUUUAAAAAAGUAUUAUGUUACGCCGUUCGGAUCUGCACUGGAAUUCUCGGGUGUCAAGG` the log2 enrichment was -1.3.
